Measured values gathered from unrelated publications.
Every numbered part comes from another study and shows a few of its results, in no order. Several values in a cell are separate wells, animals, samples, runs or records.
Chain of UniProt P42336 (whole entry, unmodified, looked up): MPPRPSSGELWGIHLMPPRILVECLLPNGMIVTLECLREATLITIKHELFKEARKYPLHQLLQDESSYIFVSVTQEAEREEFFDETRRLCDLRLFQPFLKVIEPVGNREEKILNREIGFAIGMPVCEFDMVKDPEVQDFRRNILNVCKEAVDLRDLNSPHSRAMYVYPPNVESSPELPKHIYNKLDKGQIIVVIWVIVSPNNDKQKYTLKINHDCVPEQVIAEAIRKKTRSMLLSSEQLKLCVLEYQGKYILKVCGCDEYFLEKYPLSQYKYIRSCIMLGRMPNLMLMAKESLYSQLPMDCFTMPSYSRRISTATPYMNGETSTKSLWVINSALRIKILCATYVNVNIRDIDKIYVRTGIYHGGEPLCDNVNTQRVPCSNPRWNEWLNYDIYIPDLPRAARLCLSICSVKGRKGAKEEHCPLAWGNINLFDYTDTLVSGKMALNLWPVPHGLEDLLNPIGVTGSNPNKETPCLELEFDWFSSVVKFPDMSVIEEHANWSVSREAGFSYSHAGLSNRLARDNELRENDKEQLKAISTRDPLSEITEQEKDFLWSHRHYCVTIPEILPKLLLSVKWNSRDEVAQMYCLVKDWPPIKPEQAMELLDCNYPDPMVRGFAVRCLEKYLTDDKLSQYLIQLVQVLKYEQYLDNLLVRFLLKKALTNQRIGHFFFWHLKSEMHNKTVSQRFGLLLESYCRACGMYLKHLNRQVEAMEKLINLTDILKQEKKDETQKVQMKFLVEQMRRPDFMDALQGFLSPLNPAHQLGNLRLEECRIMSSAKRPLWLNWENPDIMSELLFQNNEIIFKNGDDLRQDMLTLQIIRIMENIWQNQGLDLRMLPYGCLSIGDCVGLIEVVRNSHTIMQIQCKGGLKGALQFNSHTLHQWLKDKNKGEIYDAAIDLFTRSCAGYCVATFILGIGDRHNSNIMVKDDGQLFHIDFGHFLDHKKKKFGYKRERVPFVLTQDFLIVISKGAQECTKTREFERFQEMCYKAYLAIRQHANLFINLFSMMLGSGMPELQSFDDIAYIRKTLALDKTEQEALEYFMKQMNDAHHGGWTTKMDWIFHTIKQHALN
Chain of UniProt Q7L7X3 (whole entry, looked up): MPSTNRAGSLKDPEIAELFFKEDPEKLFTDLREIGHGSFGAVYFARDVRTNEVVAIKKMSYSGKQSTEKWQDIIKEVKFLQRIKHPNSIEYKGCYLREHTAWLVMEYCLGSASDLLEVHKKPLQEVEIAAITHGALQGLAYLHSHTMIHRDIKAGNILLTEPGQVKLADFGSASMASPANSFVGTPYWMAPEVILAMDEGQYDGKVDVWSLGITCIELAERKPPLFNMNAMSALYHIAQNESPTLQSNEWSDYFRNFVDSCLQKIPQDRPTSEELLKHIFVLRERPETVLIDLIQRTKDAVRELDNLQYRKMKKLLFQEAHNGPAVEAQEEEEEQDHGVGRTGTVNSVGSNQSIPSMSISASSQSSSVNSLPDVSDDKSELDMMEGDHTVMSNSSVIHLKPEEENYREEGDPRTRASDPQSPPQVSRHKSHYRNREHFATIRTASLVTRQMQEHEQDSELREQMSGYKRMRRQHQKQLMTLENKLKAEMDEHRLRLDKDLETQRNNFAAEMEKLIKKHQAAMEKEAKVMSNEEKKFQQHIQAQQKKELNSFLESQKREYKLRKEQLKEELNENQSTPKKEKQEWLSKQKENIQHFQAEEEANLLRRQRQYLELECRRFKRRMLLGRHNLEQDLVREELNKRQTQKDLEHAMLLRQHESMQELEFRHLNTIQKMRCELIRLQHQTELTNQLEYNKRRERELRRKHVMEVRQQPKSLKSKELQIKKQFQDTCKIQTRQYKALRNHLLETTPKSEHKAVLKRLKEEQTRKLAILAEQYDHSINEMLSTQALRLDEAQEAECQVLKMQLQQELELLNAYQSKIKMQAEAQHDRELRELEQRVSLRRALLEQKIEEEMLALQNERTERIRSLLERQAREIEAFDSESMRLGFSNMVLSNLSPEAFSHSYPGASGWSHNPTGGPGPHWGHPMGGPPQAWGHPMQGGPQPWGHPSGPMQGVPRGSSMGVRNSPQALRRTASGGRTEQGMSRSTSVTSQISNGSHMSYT
Chain of UniProt Q9NYL2 (whole entry, looked up): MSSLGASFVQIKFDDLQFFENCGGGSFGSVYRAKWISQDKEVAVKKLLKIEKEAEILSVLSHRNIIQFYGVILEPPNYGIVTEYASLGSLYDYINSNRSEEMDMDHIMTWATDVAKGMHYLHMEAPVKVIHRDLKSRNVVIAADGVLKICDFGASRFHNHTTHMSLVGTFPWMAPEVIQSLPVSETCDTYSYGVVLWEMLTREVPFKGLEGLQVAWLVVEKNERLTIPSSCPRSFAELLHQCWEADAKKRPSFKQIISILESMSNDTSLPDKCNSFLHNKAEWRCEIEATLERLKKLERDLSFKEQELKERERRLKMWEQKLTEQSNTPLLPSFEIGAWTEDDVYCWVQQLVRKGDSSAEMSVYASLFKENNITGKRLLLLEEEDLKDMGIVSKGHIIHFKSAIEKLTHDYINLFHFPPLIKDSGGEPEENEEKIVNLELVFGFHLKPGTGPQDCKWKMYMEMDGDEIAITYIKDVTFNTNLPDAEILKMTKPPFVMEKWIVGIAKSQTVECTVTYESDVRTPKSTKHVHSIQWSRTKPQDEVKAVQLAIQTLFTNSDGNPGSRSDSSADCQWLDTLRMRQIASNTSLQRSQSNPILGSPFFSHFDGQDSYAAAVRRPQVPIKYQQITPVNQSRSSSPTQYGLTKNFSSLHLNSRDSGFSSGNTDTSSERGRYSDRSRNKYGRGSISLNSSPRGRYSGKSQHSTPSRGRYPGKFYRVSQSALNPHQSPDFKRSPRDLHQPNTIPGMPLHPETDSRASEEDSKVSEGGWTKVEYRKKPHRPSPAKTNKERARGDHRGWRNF
Chain of UniProt Q9NYY3 (whole entry, looked up): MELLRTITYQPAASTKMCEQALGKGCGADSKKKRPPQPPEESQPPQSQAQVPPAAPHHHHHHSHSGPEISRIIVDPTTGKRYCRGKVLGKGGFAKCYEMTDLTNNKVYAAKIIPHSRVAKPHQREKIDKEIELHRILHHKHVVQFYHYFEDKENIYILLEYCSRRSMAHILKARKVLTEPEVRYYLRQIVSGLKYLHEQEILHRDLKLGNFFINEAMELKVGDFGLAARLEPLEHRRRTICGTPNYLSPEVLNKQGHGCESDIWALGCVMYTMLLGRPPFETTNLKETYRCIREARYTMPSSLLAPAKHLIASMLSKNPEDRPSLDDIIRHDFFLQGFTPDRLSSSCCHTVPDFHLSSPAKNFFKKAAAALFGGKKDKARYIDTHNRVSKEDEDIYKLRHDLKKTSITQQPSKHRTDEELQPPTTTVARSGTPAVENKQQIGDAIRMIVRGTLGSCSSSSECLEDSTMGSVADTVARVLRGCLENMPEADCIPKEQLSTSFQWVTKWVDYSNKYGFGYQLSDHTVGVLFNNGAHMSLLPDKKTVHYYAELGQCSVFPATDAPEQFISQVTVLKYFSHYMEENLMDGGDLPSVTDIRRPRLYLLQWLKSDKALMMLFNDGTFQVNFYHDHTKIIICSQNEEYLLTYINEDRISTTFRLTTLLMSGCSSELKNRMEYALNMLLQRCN
Chain of UniProt Q8N752 (whole entry, looked up): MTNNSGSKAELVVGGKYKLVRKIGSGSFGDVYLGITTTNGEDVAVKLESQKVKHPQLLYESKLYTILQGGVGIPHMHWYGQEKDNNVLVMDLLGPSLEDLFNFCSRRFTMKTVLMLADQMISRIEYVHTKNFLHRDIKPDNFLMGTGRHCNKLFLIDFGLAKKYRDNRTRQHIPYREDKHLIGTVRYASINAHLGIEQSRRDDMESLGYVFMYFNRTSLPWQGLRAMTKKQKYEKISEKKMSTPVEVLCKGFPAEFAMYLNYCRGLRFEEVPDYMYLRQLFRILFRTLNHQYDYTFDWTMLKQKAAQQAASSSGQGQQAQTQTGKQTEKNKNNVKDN
Chain of UniProt Q6P2M8 (whole entry, looked up): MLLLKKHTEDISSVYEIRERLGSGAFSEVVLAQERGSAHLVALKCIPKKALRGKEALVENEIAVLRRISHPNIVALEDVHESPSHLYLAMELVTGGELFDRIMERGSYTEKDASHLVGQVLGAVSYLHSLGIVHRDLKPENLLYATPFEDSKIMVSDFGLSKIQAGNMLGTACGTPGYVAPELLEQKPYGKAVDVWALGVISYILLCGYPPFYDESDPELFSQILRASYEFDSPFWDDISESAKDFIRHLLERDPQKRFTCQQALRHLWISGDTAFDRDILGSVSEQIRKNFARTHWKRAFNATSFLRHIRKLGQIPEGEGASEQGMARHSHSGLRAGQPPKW
Chain of UniProt Q9H4B4 (whole entry, looked up): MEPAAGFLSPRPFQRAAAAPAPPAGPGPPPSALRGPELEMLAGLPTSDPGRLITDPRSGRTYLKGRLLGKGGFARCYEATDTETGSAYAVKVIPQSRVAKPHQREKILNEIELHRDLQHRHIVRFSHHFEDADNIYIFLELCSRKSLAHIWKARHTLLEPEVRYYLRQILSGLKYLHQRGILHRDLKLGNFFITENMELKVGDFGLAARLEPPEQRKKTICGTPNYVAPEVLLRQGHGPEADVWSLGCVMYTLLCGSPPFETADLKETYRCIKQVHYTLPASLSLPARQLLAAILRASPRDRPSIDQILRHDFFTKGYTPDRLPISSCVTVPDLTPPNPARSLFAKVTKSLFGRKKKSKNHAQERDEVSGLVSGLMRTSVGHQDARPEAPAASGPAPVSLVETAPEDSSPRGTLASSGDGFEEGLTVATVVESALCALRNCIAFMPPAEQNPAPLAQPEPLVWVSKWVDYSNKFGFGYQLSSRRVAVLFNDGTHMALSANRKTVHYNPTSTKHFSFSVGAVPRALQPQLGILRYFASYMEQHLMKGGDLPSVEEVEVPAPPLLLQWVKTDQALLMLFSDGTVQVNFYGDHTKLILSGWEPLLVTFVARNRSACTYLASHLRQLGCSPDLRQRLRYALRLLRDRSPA

Set 1
Compound: CCC(=O)N[C@H]1CC[C@@H](C(=O)N(C)c2ccc(-c3nc4ccccc4o3)cc2)C1
Effect on: cell-free assay
Method: competition with immobilised ligand
Concentration: 1 µM
target	remaining binding
DAPK3 (Homo sapiens, UniProt O43293)	95%
PIK3CA (Homo sapiens, UniProt P42336, M1043I)	100%
TAOK1 (Homo sapiens, UniProt Q7L7X3)	100%
MAP3K20 (Homo sapiens, UniProt Q9NYL2)	89%
PIK3CA (Homo sapiens, UniProt P42336, I800L)	63%
MYLK2 (Homo sapiens, UniProt Q9H1R3)	85%
ABL2 (Homo sapiens, UniProt P42684)	100%

Set 2
Cell line: A-375
Concentration: 100 µM
Time: 18 h
SMILES	viability
CN(C)c1ccc(O)c2c1C[C@H]1C[C@H]3[C@H](N(C)C)C(O)=C(C(N)=O)C(=O)[C@@]3(O)C(O)=C1C2=O	95.1%
CC(=O)c1ccc2c(c1)N(CCCN1CCC(CCO)CC1)c1ccccc1S2	9.04%
CCN(CC)CCNC(=O)c1c(C)[nH]c(/C=C2\C(=O)Nc3ccc(F)cc32)c1C	16.9% and 19.9%
CC[C@H](C)C(=O)O[C@H]1C[C@H](O)C=C2C=C[C@H](C)[C@H](CC[C@@H](O)C[C@@H](O)CC(=O)O)[C@H]21	93.9%
CNC(=O)c1cc(Oc2ccc(NC(=O)Nc3ccc(Cl)c(C(F)(F)F)c3)c(F)c2)ccn1	35.7%
CC1(C)S[C@@H]2[C@H](NC(=O)C(C(=O)O)c3ccccc3)C(=O)N2[C@H]1C(=O)O (stereo partly drawn)	95.7%
CSc1nc2cc(Cl)c(Oc3cccc(Cl)c3Cl)cc2[nH]1	8.84%
COc1ccnc(C[S+]([O-])c2nc3cc(-n4cccc4)ccc3[nH]2)c1C (stereo not drawn)	82%
CNCCCC1c2ccccc2C=Cc2ccccc21	9.1%
O=C(c1ccc(F)cc1)C1CCN(CCn2c(=O)[nH]c3ccccc3c2=O)CC1	96.5%
COC(=O)CCc1ccc(OCC(O)CNC(C)C)cc1 (stereo not drawn)	100%
CO[C@H]1C[C@@H]2CC[C@@H](C)[C@@](O)(O2)C(=O)C(=O)N2CCCC[C@H]2C(=O)O[C@H]([C@H](C)C[C@@H]2CC[C@@H](O)[C@H](OC)C2)CC(=O)[C@H](C)/C=C(\C)[C@@H](O)[C@@H](OC)C(=O)[C@H](C)C[C@H](C)/C=C/C=C/C=C/1C	35.5%
O=C(OC[C@H]1O[C@@H](OC(=O)c2cc(O)c(O)c(OC(=O)c3cc(O)c(O)c(O)c3)c2)[C@H](OC(=O)c2cc(O)c(O)c(OC(=O)c3cc(O)c(O)c(O)c3)c2)[C@@H](OC(=O)c2cc(O)c(O)c(OC(=O)c3cc(O)c(O)c(O)c3)c2)[C@@H]1OC(=O)c1cc(O)c(O)c(OC(=O)c2cc(O)c(O)c(O)c2)c1)c1cc(O)c(O)c(OC(=O)c2cc(O)c(O)c(O)c2)c1	81.2%

Set 3
Compound: O=C(c1ccccc1)c1ccc(N2CCOCC2)cc1O
Effect on: enzyme activity
Action: inhibitor
Concentration: 0.5 µM
Relative to: control
target	remaining activity [%]
MAPK11 (Homo sapiens, UniProt Q15759)	99.3
DCLK2 (Homo sapiens, UniProt Q8N568)	103
CDC42BPB (Homo sapiens, UniProt Q9Y5S2)	90.9
PRKG2 (Homo sapiens, UniProt Q13237)	102
KDR (Homo sapiens, UniProt P35968)	96.8
PAK3 (Homo sapiens, UniProt O75914)	99.5
MAPK14 (Homo sapiens, UniProt Q16539)	96.3
Cyclin-dependent kinase 1, with cyclin A (CDK1, Homo sapiens, UniProt P06493)	103
GRK4 (Homo sapiens, UniProt P32298)	104
AKT2 (Homo sapiens, UniProt P31751)	97.9
PNCK (Homo sapiens, UniProt Q6P2M8)	101
NEK3 (Homo sapiens, UniProt P51956)	95.6
PLK3 (Homo sapiens, UniProt Q9H4B4)	99.1

Set 4
Structure (SMILES): CC(C)CCN1c2nc(Nc3cc(F)c(O)c(F)c3)ncc2N(C)C(=O)C1C (stereo not drawn)
target	Kd
CSNK1A1L (Homo sapiens, UniProt Q8N752)	21 nM
CAMKK1 (Homo sapiens, UniProt Q8N5S9)	1300 nM
CSNK1E (Homo sapiens, UniProt P49674)	70 nM
RPS6KA4 (Homo sapiens, UniProt O75676)	300 nM
PLK2 (Homo sapiens, UniProt Q9NYY3)	8.4 nM
CSNK1A1 (Homo sapiens, UniProt P48729)	66 nM

For quick reference, copied from above (set 2):
SMILES	viability
CC[C@H](C)C(=O)O[C@H]1C[C@H](O)C=C2C=C[C@H](C)[C@H](CC[C@@H](O)C[C@@H](O)CC(=O)O)[C@H]21	93.9%
CO[C@H]1C[C@@H]2CC[C@@H](C)[C@@](O)(O2)C(=O)C(=O)N2CCCC[C@H]2C(=O)O[C@H]([C@H](C)C[C@@H]2CC[C@@H](O)[C@H](OC)C2)CC(=O)[C@H](C)/C=C(\C)[C@@H](O)[C@@H](OC)C(=O)[C@H](C)C[C@H](C)/C=C/C=C/C=C/1C	35.5%
CSc1nc2cc(Cl)c(Oc3cccc(Cl)c3Cl)cc2[nH]1	8.84%
CNC(=O)c1cc(Oc2ccc(NC(=O)Nc3ccc(Cl)c(C(F)(F)F)c3)c(F)c2)ccn1	35.7%
